Assay results gathered from unrelated publications.
Each numbered part is a random draw from the data of one study; scales do not carry over between parts. Positions count from the first letter of the parent shown.

Study 1
Target: Histone acetyltransferase KAT6A, winged helix 1, GST fusion (KAT6A, Homo sapiens, UniProt Q92794, residues 1-85)
Technique: protein binding microarray
Molecule type: double-stranded DNA, one strand shown
Matrix: in vitro
Tested at: not given
Setting: 8-mer, flanks averaged, mean of 2 arrays, mostly near background
Baseline: not given
Direction: higher = stronger binding
Measurement: E-score
Construct (chain): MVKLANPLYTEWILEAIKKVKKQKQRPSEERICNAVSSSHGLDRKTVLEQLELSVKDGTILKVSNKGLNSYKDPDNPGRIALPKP
AAAATTCT: 0.0468
CTTGCATA: -0.163
GAACGGCC: 0.236
GAAAGTAC: 0.0379
CTATAAAA: -0.167
CGGCATGA: 0.296
GGGACGGA: 0.233
GCTGGCAC: -0.0737
AGCGAAAG: 0.0582
ACCGCGTG: 0.345
AGACCCCA: -0.0918
ACCAGGTA: -0.221
GACCTGCA: -0.211
AGCAGGTG: 0.00747
CCTACGTA: 0.0624
GCCATAGC: 0.0738
CGGTGGTA: 0.127
AAGCCGAC: 0.325
CAACGGAA: 0.0643
AGCAATTC: -0.0813
AAGCATCC: 0.0708
GAGCACGC: 0.0686
AATGAGCA: -0.216
ATGATTGA: -0.32
CCGGCACG: 0.293

Study 2
Target: Fragile X messenger ribonucleoprotein 1, C-terminal low-complexity region (Fmr1, Mus musculus, UniProt P35922)
Technique: RNA Bind-n-Seq
Molecule type: RNA
Matrix: in vitro
Tested at: 200 nM
Setting: whole 134-nt RNA, ends assumed
Added: 150 mM KCl
Baseline: input library
Direction: higher = stronger binding
Measurement: log2 enrichment
All sequences stand within: GGGAGUUCUACAGUCCGACGAUC … UGGAAUUCUCGGGUGUCAAGG
AACACUCAAACCACCAUCAAGCUUUUCCAGGAAUGCUGUCCUCAUUCCACUGACAGAGUUGUUCUUAUUGGAGGAAAACCCGAUAGGGUU: 0.0686
CUGUGCUACACAUCGUAUGUACCGAAUCGGGGUUUUUUUGGGGUUUUUGGGGUUUUUGGGGAAAGUAUUAUGUUACGCCGUUCGGAUCUG: -0.166
UCCUGUGCUACACAUCGUAUGUACCGAAUCGGGUUUUUGGGAAAAAGGGAAAAAAAGGGAAAGUAUUAUGUUACGCCGUUCGGAUCUGCA: -0.16
CCUGUGCUACACAUCGUAUGUACCGAAUCGGGGUUUUUUUGGGGAAAGGGGAAAAAGGGGAAAGUAUUAUGUUACGCCGUUCGGAUCUGC: 0.33
CAAGUCCUGUGCUACACAUCGUAUGUACCGAAUCGGGGAAGGGGAAGGGGAAGGGAAAGUAUUAUGUUACGCCGUUCGGAUCUGCACUUC: 0.758
CAAGUCCUGUGCUACACAUCGUAUGUACCGAAUCGGUUUGGUUUUUUUGGAAAGGAAAGUAUUAUGUUACGCCGUUCGGAUCUGCACUUC: -0.6
GUCCUGUGCUACACAUCGUAUGUACCGAAUCGGGGUUUGGGGUUUUUUUGGGGUGGGGAAAGUAUUAUGUUACGCCGUUCGGAUCUGCAC: 0.993
AAGUCCUGUGCUACACAUCGUAUGUACCGAAUCGGGCCCCGGGCCCCGGCCCCGGGGAAAGUAUUAUGUUACGCCGUUCGGAUCUGCACU: -0.86
CCUCAAGUCCUGUGCUACACAUCGUAUGUACCGAAUCGGGCGGGGCGGCGGGAAAGUAUUAUGUUACGCCGUUCGGAUCUGCACUUCCAG: 0.654
CAAGUCCUGUGCUACACAUCGUAUGUACCGAAUCGGUUUUGGUUUUGGUUUUGGGGAAAGUAUUAUGUUACGCCGUUCGGAUCUGCACUU: -0.557
CUCAAGUCCUGUGCUACACAUCGUAUGUACCGAAUCGGGAGGGAGGGUUUGGGAAAGUAUUAUGUUACGCCGUUCGGAUCUGCACUUCCA: 1.31
UUUUCUGCAUGGACCGUGCCCUAGAAUUUGCCCCUGCCUGCCAUCGCUUCAAAAUCCUCAAGGCAGAAUGUUUAGCAAUGCUGGGUCGUU: -0.178
UAACUUUAGAGGAGGAUCUGAUGGAUAUGGCAGUGGACGUGGAUUUGGGGAUGGCUAUAAUGGGUAUGGAGGAGGACCUGGAGGUGGCAA: 0.164
UCCUCAAGUCCUGUGCUACACAUCGUAUGUACCGAAUCGGGCGGCGGGCGGAAAGUAUUAUGUUACGCCGUUCGGAUCUGCACUUCCAGC: -0.407

Study 3
Target: Interferon regulatory factor 7, full length, phosphomimetic (IRF7, Homo sapiens, UniProt Q92985, residues 1-503, S101K/S471D/S472D/S475D/S476D/S477D/S483D/S484D/S487D)
Technique: protein-binding microarray
Molecule type: double-stranded DNA, one strand shown
Matrix: in vitro
Tested at: 250 nM
Setting: 60-bp whole probe
Added: salmon DNA 0.4 mg/ml
Baseline: random background probes
Direction: higher = stronger binding
Measurement: log fluorescence
All sequences stand within: GCCTAGCAC … GTCTTGATTCGCTTGACGCTGCTG
Residues (chain): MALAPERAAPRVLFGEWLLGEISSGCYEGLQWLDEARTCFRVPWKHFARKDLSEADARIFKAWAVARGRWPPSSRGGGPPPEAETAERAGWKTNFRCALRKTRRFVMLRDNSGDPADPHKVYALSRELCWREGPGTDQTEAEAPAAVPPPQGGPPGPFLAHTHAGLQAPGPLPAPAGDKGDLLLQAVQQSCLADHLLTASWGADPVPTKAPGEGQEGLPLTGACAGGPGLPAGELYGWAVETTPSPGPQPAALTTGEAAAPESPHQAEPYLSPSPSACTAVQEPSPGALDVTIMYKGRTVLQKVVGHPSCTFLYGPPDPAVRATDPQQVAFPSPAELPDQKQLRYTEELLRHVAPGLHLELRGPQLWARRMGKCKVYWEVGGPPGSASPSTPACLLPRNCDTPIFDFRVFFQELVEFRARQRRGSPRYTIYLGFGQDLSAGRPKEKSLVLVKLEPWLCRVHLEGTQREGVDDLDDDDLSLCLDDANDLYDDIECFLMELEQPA
TTACAACTGAGACTGGATTAGTGCTAG: -0.155 z-score
GACGGTTTCGGTTCCAGGACGTGCTAG: 12.4 z-score
GACGGTATCCTTCTCCTGAGGTGCTAG: 0.051 z-score
GACGGACTAGGTATCGGGACGTGCTAG: 0.26 z-score
TTAGGACTAGGGTTTCGGTTAGTGCTA: 5.88 z-score
GACAGTCTCGGTCTCGGGACGTGCTAG: 0.996 z-score
TGTCATTTACATTTTAGTAGGTGCTAG: 0.303 z-score
TTAGAACTGAGTCTCGATAAGTGCTAG: 0.303 z-score
TCAGTTTCCAGTATATTACTGTGCTAG: 2.31 z-score
CGATTACAGCTAGGTAGTGGGTGCTAG: 0.833 z-score
TTAGGTTTCTTTTCCCTTTAGTGCTAG: 5.14 z-score
CAGCACATGCATCTCCCACAGTGCTAG: -0.286 z-score
TTAGAACTGGGGTACCGATTAGTGCTA: 0.186 z-score
GAAGGTCTCCTACTGCTGACGTGCTAG: -0.332 z-score
GACGATTTCCTACTGCTGACGTGCTAG: 0.845 z-score
TCTCTGCTACCCTCTGAAAGTGTGCTA: -0.146 z-score
TCACCTTTTCACTTTACACTGTGCTAG: 2.13 z-score
AGATTCCTCTCACCTCGGCCTGTGCTA: 0.988 z-score
GGCGGTATCGGTATCGGGACGTGCTAG: 1.06 z-score
GAGGATCTCAGACTGGAGACGTGCTAG: -0.693 z-score
TTAGGACTGGGTCTCGTTTAGTGCTAG: 1.57 z-score
GACAGACTGGGACTGGGGACGTGCTAG: -0.312 z-score
TTAGGACTCGGGTTTCGGTTAGTGCTA: 8.1 z-score
TCATTTTCCTCTGTCATACTGTGCTAG: 2.79 z-score

Study 4
Target: CCNE1, cyclin fold, Cln2 fusion (human)
Technique: yeast growth competition, sequencing
Matrix: yeast
Setting: strong parent motif
Baseline: not given
Direction: higher = stronger binding
Measurement: normalised enrichment score
Starting sequence: SCAPER docking peptide (human); SNARRSLNFGGST
F9P: 0.591
N8F: 1.09
S12F: 1.24
G11N: 0.689
G11K: 0.671
T13S: 1.39
S12K: 0.705
F9I: 0.374
G10L: 1.12
S12L: 1.62
R4N: 0.689
S6G: 1.26

Study 5
Target: ABI1, truncated, D143A, DHFR fusion (Arabidopsis thaliana)
Technique: DHFR PCA, deep sequencing
Matrix: yeast
Setting: methotrexate growth selection, single substitutions
Added: (+)-ABA 1.4 µM
Baseline: wild-type fitted maximum
Direction: higher = stronger binding
Measurement: relative binding score
Starting sequence: PYL1, truncated, DHFR fusion (Arabidopsis thaliana); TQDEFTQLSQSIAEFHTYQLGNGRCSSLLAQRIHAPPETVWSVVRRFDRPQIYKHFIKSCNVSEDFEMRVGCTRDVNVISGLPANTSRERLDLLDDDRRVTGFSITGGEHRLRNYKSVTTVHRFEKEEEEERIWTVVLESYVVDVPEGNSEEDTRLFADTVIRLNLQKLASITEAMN
V62N: 4.89%
I105C: 5.56%
E64Q: 55.4%
L8W: 44.3%
T119L: 36.9%
Y115H: 11.9%
Q7W: 63.7%
Q19S: 59.7%
E127L: 58.9%
R155F: -32.8%
I52V: 71.5%
S63Q: 58.2%

Study 6
Target: CREB3L4, bZIP domain (human)
Technique: DHFR protein complementation
Matrix: yeast
Setting: single substitutions, most at no-binding floor
Baseline: wild-type JUN-FOS pair
Direction: higher = stronger binding
Measurement: binding fitness
Starting sequence: JUN, bZIP domain (human); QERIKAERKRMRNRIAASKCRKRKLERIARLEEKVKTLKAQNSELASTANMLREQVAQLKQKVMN; partner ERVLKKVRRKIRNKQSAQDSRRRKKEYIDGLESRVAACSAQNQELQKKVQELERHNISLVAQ
N42G: -1.45 natural log
M51C: -1.38 natural log
L52M: -1.48 natural log
A40H: -1.6 natural log
S47R: -1.36 natural log
A49N: -1.65 natural log
R53H: -1.34 natural log
K34Q: -1.52 natural log
K34C: -1.47 natural log
N42Q: -1.37 natural log
T37N: -1.37 natural log
E32I: -1.5 natural log
S43T: -1.29 natural log
L52R: -1.51 natural log
A46P: -1.56 natural log
L52G: -1.48 natural log
R53P: -1.48 natural log

Some of these lines once more (study 4):
F9P: 0.591
N8F: 1.09
S12F: 1.24
G11N: 0.689
G11K: 0.671
T13S: 1.39
S12K: 0.705
F9I: 0.374
G10L: 1.12
S12L: 1.62
R4N: 0.689
